Experimental data collected from several papers.
Lines come from different studies, so protocols differ. Several values in a cell are separate wells, animals, samples, runs or records. Numbers after ± are the reported error.
Cell line: HCT-116

Compound | test | test system | conditions | how to read | measurement | value
COc1nc(NCc2cn(-c3ccc(C(=O)Nc4ccccc4)cc3)nn2)nc(OC)n1 | sandwich ELISA | culture supernatant | IC50, 72 h, unit not given | relative to: untreated | VEGF protein level | 0.78 and 0.783
NC(=O)NOCCCCCCCCCCCCCC[P+](c1ccccc1)(c1ccccc1)c1ccccc1.O=C([O-])C(F)(F)F | cell growth, live-cell imaging |  | 1.5 µM, control at 90% confluence |  | cell confluence | 9.07%
CCn1cc(-c2cc(Cn3ccnc3)cc3c2CCN([C@H](c2cc(OC)ccn2)C2CC2)C3=O)c(C(F)(F)F)n1 | cell growth, inhibitor |  | 120 h |  | EC50 | > 30 µM
NC(=O)NOCCCC[P+](c1ccccc1)(c1ccccc1)c1ccccc1.O=C([O-])C(F)(F)F | cell growth, live-cell imaging |  | 400 µM, control at 90% confluence |  | cell confluence | 80.8%
CCOC(=O)c1sc(=NN=C(C)c2c(O)c3ccccc3oc2=O)n(C)c1C | cell growth, MTT |  |  | relative to: IC50 BJ-1 over HCT-116 | selectivity index | > 16.9
O=C(NOC[C@H](O)CO)c1ccc(F)c(F)c1Nc1ccc(I)cc1F |  |  | 0.03906 µM, 72 h |  | viability | 99.3%
CCCN1CCN(c2ccc3nc(-c4ccc5nc(-c6cc(OC)ccc6OC)[nH]c5c4)[nH]c3c2)CC1 | SRB |  | 10 µM, 48 h |  | growth percent | -57.3%
Cn1ncc2c(NC(P(=O)(O)O)P(=O)(O)O)nc(-c3cccc(C(=O)Nc4ccc(C(F)(F)F)cc4)c3)nc21 | Rap1A prenylation, inhibitor, Western blot |  |  |  | lowest effective concentration | ≤ 100 nM
CCN1C(=O)C(C)SC1=NN=C(C)c1c(O)c2ccccc2oc1=O (stereo not drawn) | cell growth, MTT |  |  | relative to: IC50 BJ-1 over HCT-116 | selectivity index | > 2.23
Cn1cncc1C1=CN(c2ncnc3[nH]cnc23)CCS1 |  |  | colon cancer |  | GI50 | 10 µM
O=P1(C2CCCCC2)CCCCC1 | annexin V/PI flow cytometry |  | IC50, 72 h |  | necrotic cells | 1.45%
O=C(O)c1ccc(Nc2c(-c3ccccc3)nc3cc(-c4ccccc4)ccn23)cc1 | cell viability |  | 72 h, with: camptothecin | direction not given | synergy score | 9.1
Cn1cnc2c(F)c(Nc3ccc(Br)cc3F)c(C(=O)NOCCO)cc21 |  |  | 5 µM, 72 h |  | viability | 26.4%
Cc1n[nH]c2nc(-c3ccc(Cl)cc3)c3c(NC(=O)c4ccccc4)nnc-3n12 | SRB |  | 10 µM, NCI60 single-dose screen, colon cancer | relative to: untreated | cell growth | 101%
CCN(CC)c1ccc(C=NNC(=O)CSc2nc3ccccc3c(=O)n2Cc2ccc(S(N)(=O)=O)cc2)c(O)c1 | NCI five-dose screen |  |  |  | TGI | > 100 µM
NNc1nc(-c2ccc(Cl)cc2)c2c(NC(=O)c3ccccc3)nnc-2[nH]1 | SRB |  | 10 µM, NCI60 single-dose screen, colon cancer | relative to: untreated | cell growth | 98.8%
CC(=NN=c1[nH]c(C)c(N=Nc2ccccc2)s1)c1c(O)c2ccccc2oc1=O | cell growth, MTT |  |  | relative to: IC50 BJ-1 over HCT-116 | selectivity index | > 2.95
CCCCN1CCN(c2ccc3[nH]c(-c4ccc5[nH]c(-c6ccc(C(F)(F)F)cc6)nc5c4)nc3c2)CC1 | SRB |  | 10 µM, 48 h |  | growth percent | -70.7%
O=C1NC(c2ccccc2)(c2ccccc2)C(=O)N1Cc1cn(-c2cc3ccccc3oc2=O)nn1 | NCI60 single-dose screen |  | 10 µM |  | growth percentage | 96.6%
CS(=O)(=O)c1ccc2nc(-c3ccccc3)c(Nc3ccc(C(=O)O)cc3)n2c1 | cell viability |  | 72 h, with: camptothecin | direction not given | synergy score | 9.5

Compound | test | test system | conditions | how to read | measurement | value
COc1nc(NCc2cn(-c3ccc(C(=O)Nc4ccc(C(F)(F)F)cc4)cc3)nn2)nc(OC)n1 | flow cytometry |  | IC50, 24 h |  | cell cycle phase %G2-M | 10.2%
CCCCCCCCCCCCCC(=O)N[C@@H](CCSC)C(=O)N[C@@H](C)C(=O)N[C@@H](CO)C(=O)N[C@@H](CCCNC(=N)N)C(=O)NCC(=O)N[C@@H](C)C(=O)N[C@@H](CC(C)C)C(=O)N[C@@H](CCCNC(=N)N)C(=O)N[C@@H](CCCNC(=N)N)C(=O)N[C@@H](CS)C(=O)N[C@@H](CC(C)C)C(=O)N[C@@H](CO)C(=O)N1CCC[C@H]1C(=O)NCC(=O)N[C@@H](CC(C)C)C(=O)N1CCC[C@H]1C(=O)N[C@@H](CCCNC(=N)N)C(=O)N[C@@H](CC(C)C)C(=O)N[C@@H](CC(C)C)C(=O)N[C@@H](Cc1c[nH]cn1)C(=O)N[C@@H](CC(C)C)C(=O)N[C@@H](CO)C(=O)N[C@@H](CCCNC(=N)N)C(=O)NCC(=O)N[C@@H](CC(C)C)C(=O)N[C@@H](C)C(N)=O | cell viability, XTT | colon | concentration not given |  | viability | no effect
CSc1nc(-c2ccc(Cl)cc2)c2c(NC(=O)c3ccccc3)nnc-2[nH]1 | SRB |  | 10 µM, NCI60 single-dose screen, colon cancer | relative to: untreated | cell growth | 97.3%
O=c1ccn(Cc2cn(-c3c4ccccc4nc4ccccc34)nn2)c(=O)[nH]1 | NCI60 single-dose screen |  | 10 µM |  | growth percentage | 92.4%
CC(=NN=C1NC(=O)C(C)S1)c1c(O)c2ccccc2oc1=O (stereo not drawn) | cell growth, MTT |  |  | relative to: IC50 BJ-1 over HCT-116 | selectivity index | > 2.61
O=[N+]([O-])c1ccc(O)c(C=NNc2ccc(Br)cc2)c1 | Muse cell cycle |  | IC50, 24 h |  | cells in S phase | 19%
NC(=O)NO | cell growth, live-cell imaging |  | 150 µM, control at 90% confluence |  | cell confluence | 48.6 ± 9.11%
CCCN1CCN(c2ccc3[nH]c(-c4ccc5[nH]c(-c6ccc(C(F)(F)F)cc6)nc5c4)nc3c2)CC1 | SRB |  | 10 µM, 48 h |  | growth percent | -83.3%
O=[N+]([O-])c1cc(Br)c(O)c(C=NNc2ccc(C(F)(F)F)cc2)c1 | annexin V |  | IC50 |  | early apoptotic cells | 10.8%
NC(=O)NOCCCCCCCCCC[P+](c1ccccc1)(c1ccccc1)c1ccccc1.O=C([O-])C(F)(F)F | cell growth, live-cell imaging |  | 100 µM, control at 90% confluence |  | cell confluence | 1.53%
CCOc1ccc(-c2nc3cc(-c4nc5cc(N6CCN(C)CC6)ccc5[nH]4)ccc3[nH]2)cc1OCC | SRB |  | 10 µM, 48 h |  | growth percent | -3.06%
O=[N+]([O-])c1cc(I)c(O)c(C=NNc2ccccc2)c1 | Muse cell cycle |  | IC50, 24 h |  | cells in S phase | 12.5%
Cc1cc(=O)[nH]c(=O)n1Cc1cn(-c2cc3ccccc3oc2=O)nn1 | NCI60 single-dose screen |  | 10 µM |  | growth percentage | 98.4%
COc1cccc2c1C(=O)c1c(O)c3c(c(O)c1C2=O)C[C@@](O)(C(=O)CO)C[C@@H]3O[C@H]1C[C@H](N)[C@H](O)[C@H](C)O1 | flow cytometry |  | 3.66 µM (IC50), 72 h |  | cells in S phase | 28.9%
COc1ccc2cc(/C=N/n3c(C)nc4ccc(Br)cc4c3=O)ccc2c1 | cytotoxicity, LDH release |  | 24 h, 50% viability reduction |  | IC50 | 553 ± 11.7 µM
NC(=O)NOCCCCCCCCCCCCCCCC[P+](c1ccccc1)(c1ccccc1)c1ccccc1.O=C([O-])C(F)(F)F | cell growth, live-cell imaging |  | 0.1 µM, control at 90% confluence |  | cell confluence | 89.3%
Cc1cc(=O)[nH]n1-c1nc(-c2ccc(Cl)cc2)c2c(NC(=O)c3ccccc3)nnc-2[nH]1 | SRB |  | 10 µM, NCI60 single-dose screen, colon cancer | relative to: untreated | cell growth | 88.3%
OC1CCC(Oc2cccc3cnc(Nc4ccc5nc[nH]c5c4)nc23)CC1 (stereo not drawn) | RT-qPCR, item: TNIK mRNA |  | concentration not given, 24 h | relative to: GAPDH | mRNA level | decreased
NC(=O)NOCCCCCCCCCCCC[P+](c1ccccc1)(c1ccccc1)c1ccccc1.O=C([O-])C(F)(F)F | cell growth, live-cell imaging |  | 10 µM, control at 90% confluence |  | cell confluence | 2.49 ± 0.28%
